Results collected from several papers.
Each numbered part is a random draw from the data of one study; scales do not carry over between parts.
Sequence of UniProt P42336 (whole entry, unmodified, looked up): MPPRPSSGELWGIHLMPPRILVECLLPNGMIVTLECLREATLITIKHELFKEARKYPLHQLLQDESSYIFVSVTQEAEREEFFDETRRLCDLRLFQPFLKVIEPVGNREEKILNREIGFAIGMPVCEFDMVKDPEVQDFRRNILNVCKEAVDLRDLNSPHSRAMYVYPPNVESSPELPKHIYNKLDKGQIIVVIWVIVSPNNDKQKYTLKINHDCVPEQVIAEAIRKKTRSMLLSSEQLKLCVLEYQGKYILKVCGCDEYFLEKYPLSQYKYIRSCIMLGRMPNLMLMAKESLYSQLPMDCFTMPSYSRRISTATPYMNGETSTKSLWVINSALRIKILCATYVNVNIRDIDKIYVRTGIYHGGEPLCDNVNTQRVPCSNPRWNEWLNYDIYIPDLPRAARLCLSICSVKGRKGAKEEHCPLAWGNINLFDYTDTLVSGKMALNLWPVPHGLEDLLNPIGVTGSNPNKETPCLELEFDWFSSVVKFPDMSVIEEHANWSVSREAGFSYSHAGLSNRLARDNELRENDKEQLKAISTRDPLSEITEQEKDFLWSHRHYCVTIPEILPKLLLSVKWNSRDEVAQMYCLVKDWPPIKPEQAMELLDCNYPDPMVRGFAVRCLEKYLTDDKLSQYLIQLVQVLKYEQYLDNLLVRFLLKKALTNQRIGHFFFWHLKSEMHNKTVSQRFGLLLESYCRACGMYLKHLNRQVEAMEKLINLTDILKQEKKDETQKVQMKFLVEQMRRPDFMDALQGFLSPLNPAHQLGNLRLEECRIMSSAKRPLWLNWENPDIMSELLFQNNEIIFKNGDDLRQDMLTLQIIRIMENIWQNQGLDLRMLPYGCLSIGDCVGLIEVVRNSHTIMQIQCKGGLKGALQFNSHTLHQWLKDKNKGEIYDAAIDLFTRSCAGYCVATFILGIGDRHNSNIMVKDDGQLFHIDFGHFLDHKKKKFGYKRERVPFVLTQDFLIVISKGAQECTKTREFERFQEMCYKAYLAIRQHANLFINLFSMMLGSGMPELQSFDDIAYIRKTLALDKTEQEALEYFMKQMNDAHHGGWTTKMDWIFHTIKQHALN
Sequence of UniProt Q16566 (whole entry, looked up): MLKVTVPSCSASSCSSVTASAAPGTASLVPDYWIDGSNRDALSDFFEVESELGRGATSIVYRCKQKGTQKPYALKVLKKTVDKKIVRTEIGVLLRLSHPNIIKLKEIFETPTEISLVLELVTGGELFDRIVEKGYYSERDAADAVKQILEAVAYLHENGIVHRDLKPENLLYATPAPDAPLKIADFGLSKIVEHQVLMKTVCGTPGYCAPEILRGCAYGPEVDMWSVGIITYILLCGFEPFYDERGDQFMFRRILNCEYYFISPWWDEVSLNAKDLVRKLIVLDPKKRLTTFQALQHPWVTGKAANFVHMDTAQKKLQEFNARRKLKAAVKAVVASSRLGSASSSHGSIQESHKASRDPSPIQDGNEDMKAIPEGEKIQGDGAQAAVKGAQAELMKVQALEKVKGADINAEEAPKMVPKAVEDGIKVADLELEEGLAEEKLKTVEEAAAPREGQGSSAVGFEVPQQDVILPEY
Sequence of UniProt Q7KZI7 (whole entry, looked up): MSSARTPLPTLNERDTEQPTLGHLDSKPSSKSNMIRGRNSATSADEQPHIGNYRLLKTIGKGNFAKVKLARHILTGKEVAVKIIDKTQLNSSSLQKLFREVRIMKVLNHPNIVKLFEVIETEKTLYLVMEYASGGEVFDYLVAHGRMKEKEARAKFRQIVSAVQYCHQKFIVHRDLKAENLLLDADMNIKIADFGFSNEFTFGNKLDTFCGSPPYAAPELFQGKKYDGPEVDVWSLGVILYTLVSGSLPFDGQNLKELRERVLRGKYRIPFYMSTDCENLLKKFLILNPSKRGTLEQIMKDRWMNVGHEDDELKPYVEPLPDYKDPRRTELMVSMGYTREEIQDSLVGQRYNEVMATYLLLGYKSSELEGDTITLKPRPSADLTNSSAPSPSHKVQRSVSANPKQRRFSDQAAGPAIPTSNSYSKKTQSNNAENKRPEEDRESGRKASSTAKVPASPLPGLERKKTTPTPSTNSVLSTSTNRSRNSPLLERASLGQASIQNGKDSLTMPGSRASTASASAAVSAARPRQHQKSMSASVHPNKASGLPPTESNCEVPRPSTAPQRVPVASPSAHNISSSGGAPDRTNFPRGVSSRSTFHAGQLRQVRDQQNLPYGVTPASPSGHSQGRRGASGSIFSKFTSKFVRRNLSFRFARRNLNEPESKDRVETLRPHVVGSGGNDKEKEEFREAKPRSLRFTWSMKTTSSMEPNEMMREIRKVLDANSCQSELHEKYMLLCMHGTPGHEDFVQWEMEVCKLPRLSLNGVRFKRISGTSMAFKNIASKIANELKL
Sequence of UniProt Q13464 (whole entry, looked up): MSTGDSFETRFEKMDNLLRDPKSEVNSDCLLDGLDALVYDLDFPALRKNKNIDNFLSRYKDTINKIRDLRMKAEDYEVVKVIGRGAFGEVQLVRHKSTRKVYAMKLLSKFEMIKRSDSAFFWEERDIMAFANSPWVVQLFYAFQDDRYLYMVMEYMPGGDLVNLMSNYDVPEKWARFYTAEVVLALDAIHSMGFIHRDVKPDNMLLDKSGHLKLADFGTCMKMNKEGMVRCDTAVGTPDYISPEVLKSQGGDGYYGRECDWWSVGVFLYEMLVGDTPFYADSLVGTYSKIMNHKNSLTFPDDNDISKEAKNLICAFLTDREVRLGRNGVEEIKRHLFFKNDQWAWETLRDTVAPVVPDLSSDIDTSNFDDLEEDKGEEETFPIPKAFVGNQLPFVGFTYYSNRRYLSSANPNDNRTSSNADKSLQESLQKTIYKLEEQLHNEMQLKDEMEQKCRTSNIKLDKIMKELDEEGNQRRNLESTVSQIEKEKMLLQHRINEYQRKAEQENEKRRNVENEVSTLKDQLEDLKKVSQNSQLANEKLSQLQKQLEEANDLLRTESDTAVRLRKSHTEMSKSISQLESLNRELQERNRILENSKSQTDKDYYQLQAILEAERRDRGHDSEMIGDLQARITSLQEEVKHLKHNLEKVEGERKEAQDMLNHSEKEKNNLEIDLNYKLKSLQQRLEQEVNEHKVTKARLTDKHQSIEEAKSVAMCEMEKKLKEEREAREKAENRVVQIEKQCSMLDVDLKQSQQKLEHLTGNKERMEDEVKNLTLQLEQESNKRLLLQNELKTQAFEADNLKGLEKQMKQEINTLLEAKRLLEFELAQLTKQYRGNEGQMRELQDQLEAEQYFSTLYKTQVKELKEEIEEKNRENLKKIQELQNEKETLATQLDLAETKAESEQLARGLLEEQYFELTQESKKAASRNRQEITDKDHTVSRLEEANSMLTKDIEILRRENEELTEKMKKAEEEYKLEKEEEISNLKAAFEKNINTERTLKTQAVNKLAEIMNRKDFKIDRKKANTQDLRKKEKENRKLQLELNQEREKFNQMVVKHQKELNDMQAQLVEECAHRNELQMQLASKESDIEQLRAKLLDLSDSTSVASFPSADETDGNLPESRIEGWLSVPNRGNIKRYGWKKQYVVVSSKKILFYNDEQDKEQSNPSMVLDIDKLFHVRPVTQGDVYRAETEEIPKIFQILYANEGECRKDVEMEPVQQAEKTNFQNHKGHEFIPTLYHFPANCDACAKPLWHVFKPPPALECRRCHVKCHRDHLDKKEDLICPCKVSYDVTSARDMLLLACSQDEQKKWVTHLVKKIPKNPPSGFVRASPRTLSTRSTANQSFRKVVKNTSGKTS
Sequence of UniProt Q9HAZ1 (whole entry, looked up): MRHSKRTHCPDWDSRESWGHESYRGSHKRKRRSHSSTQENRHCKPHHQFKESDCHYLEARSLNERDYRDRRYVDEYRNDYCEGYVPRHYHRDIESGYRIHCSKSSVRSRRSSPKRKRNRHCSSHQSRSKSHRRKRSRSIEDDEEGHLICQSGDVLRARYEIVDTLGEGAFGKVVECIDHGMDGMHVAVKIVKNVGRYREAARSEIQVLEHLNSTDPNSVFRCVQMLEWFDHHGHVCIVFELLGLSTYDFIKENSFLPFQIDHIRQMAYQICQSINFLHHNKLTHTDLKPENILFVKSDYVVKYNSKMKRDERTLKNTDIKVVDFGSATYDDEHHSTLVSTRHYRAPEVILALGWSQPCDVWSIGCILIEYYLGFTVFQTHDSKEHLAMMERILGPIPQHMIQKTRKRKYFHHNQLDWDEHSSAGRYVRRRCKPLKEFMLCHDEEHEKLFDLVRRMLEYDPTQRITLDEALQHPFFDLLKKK
Sequence of UniProt P06493 (whole entry, looked up): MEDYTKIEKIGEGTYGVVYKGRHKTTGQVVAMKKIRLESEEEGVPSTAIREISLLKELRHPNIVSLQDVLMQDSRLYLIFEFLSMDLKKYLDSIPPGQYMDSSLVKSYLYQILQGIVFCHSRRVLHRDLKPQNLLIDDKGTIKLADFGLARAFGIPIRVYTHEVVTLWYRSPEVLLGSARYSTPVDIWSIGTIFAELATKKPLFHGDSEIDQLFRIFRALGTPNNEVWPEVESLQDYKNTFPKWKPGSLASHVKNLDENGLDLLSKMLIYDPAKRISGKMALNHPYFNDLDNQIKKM

Study 1
Structure (SMILES): CCC(=O)N[C@H]1CC[C@@H](C(=O)N(C)c2ccc(-c3nc4ccccc4o3)cc2)C1
Read-out: cell-free assay
Method: competition with immobilised ligand
Concentration: 1 µM
It gave 95% for remaining binding (DAPK3 (Homo sapiens, UniProt O43293)).
BMPR2 (Homo sapiens, UniProt Q13873) — remaining binding: 98%.
For FLT3 (Homo sapiens, UniProt P36888): remaining binding read 78%.
For EGFR (Homo sapiens, UniProt P00533, G719C): remaining binding read 100%.
For Tyrosine-protein kinase JAK1, JH1 (JAK1, Homo sapiens, UniProt P23458): remaining binding read 100%.
It gave 100% for remaining binding (MARK2 (Homo sapiens, UniProt Q7KZI7)).
The remaining binding was 63% (PIK3CA (Homo sapiens, UniProt P42336, I800L)).
It gave 100% for remaining binding (NUAK1 (Homo sapiens, UniProt O60285)).
It gave 100% for remaining binding (PIK3CA (Homo sapiens, UniProt P42336, M1043I)).
For STK39 (Homo sapiens, UniProt Q9UEW8): remaining binding read 100%.

Study 2
Target: Calcium/calmodulin-dependent protein kinase type II subunit alpha (CAMK2A, Homo sapiens, UniProt Q9UQM7)
Sequence of UniProt Q9UQM7 (whole entry, looked up): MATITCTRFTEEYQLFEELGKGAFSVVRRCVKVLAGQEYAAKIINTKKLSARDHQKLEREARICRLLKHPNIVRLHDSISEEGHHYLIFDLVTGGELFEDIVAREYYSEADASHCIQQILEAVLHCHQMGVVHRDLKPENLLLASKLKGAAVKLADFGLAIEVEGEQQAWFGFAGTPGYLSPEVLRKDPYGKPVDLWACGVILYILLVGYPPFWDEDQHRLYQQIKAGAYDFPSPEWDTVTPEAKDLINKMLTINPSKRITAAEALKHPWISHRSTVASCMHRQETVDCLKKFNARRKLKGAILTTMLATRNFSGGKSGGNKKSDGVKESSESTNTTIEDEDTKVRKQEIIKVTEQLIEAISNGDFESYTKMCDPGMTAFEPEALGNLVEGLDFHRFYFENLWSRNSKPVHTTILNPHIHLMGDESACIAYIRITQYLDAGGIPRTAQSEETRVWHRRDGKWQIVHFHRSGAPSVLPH
Read-out: enzyme activity
Mode: inhibitor
Concentration: 10 µM
The inhibition of `CCC/C=C1\OC(=O)C2=C1CCC=C2` is reported as -35%.
With `COc1cc2nc(N3CCN(C(=O)c4ccco4)CC3)nc(N)c2cc1OC` the inhibition was -7%.
The inhibition of `CN1CCC[C@H]1C(=O)O` is reported as 4%.
For `COc1ccc(OC)c(C(O)CNC(=O)CN)c1` (stereo not drawn), the inhibition was -9%.
The inhibition of `C[C@]12C=CC(=O)N[C@@H]1CC[C@@H]1[C@@H]2CC[C@]2(C)[C@@H](C(=O)Nc3cc(C(F)(F)F)ccc3C(F)(F)F)CC[C@@H]12` is reported as -4%.
`CC(C)C(=O)c1c(C(C)C)nn2ccccc12` gave an inhibition of -3%.
With `Cn1c(=O)[nH]c(=O)c2[nH]cnc21` the inhibition was 30%.
`COc1cccc2c1C(=O)c1c(O)c3c(c(O)c1C2=O)C[C@@](O)(C(=O)CO)C[C@@H]3O[C@H]1C[C@H](N)[C@@H](O)[C@H](C)O1` has an inhibition of 7%.
`C#C[C@]1(OC(C)=O)CC[C@H]2[C@@H]3CCC4=CC(=NO)CC[C@@H]4[C@H]3CC[C@@]21CC` (mixture of isomers) gave an inhibition of 3%.
For `C=C1CC23C[C@H]4[C@@H]5[C@@]6(C)C[C@H](OC(C)=O)C[C@]57C(N4C6)[C@@]2(O)[C@H](OC(C)=O)[C@H]1[C@@H](O)[C@H]37`, the inhibition was -6%.

Study 3
SMILES: NC(=O)c1ccc(-c2nc(-c3ccc4c(c3)OCCO4)c(-c3ccccn3)[nH]2)cc1
Read-out: enzyme activity
Mode: inhibitor
Concentration: 0.5 µM
Baseline: control
For CLK4 (Homo sapiens, UniProt Q9HAZ1): remaining activity read 109%.
For MARK2 (Homo sapiens, UniProt Q7KZI7): remaining activity read 97.1%.
The remaining activity was 105% (GRK4 (Homo sapiens, UniProt P32298)).
The remaining activity was 81.1% (PRKG2 (Homo sapiens, UniProt Q13237)).
The remaining activity was 97.1% (Cyclin-dependent kinase 9, with cyclin K (CDK9, Homo sapiens, UniProt P50750)).
It gave 112% for remaining activity (CLK3 (Homo sapiens, UniProt P49761)).
It gave 104% for remaining activity (PNCK (Homo sapiens, UniProt Q6P2M8)).
It gave 91.9% for remaining activity (MAPK14 (Homo sapiens, UniProt Q16539)).
For DCLK2 (Homo sapiens, UniProt Q8N568): remaining activity read 95.5%.
For ROCK1 (Homo sapiens, UniProt Q13464): remaining activity read 98.1%.
The remaining activity was 96% (KDR (Homo sapiens, UniProt P35968)).
For TXK (Homo sapiens, UniProt P42681): remaining activity read 99.2%.
The remaining activity was 95.9% (AKT2 (Homo sapiens, UniProt P31751)).
RPS6KA4 (Homo sapiens, UniProt O75676) — remaining activity: 97.7%.
PLK3 (Homo sapiens, UniProt Q9H4B4) — remaining activity: 95.9%.
For Cyclin-dependent kinase 1, with cyclin A (CDK1, Homo sapiens, UniProt P06493): remaining activity read 97.1%.
It gave 95% for remaining activity (NEK3 (Homo sapiens, UniProt P51956)).
For MAP2K1 (Homo sapiens, UniProt Q02750): remaining activity read 95.3%.
For DDR2 (Homo sapiens, UniProt Q16832): remaining activity read 95%.
For MET (Homo sapiens, UniProt P08581): remaining activity read 88.3%.
For MINK1 (Homo sapiens, UniProt Q8N4C8): remaining activity read 97.1%.
It gave 95.4% for remaining activity (MAPK11 (Homo sapiens, UniProt Q15759)).
The remaining activity was 101% (CAMK4 (Homo sapiens, UniProt Q16566)).
MAPK1 (Homo sapiens, UniProt P28482) — remaining activity: 101%.
PAK3 (Homo sapiens, UniProt O75914) — remaining activity: 96.7%.

Study 4
Compound: O=C(Nc1ccccc1)Nc1cccc(Oc2ccc3nccn3n2)c1
Concentration: 1 µM
It gave 100% for remaining binding (PRKX (Homo sapiens, UniProt P51817); competitive binding panel; baseline: vehicle).
MAPK6 (Homo sapiens, UniProt Q16659); competitive binding panel, measured: ERK3; baseline: vehicle — remaining binding: 100%.
It gave 100% for remaining binding (PAK1 (Homo sapiens, UniProt Q13153); competitive binding panel; baseline: vehicle).
For TLK2 (Homo sapiens, UniProt Q86UE8); competitive binding panel; baseline: vehicle: remaining binding read 100%.
It gave 93% for remaining binding (CAMK4 (Homo sapiens, UniProt Q16566); competitive binding panel; baseline: vehicle).
CDK11B (Homo sapiens, UniProt P21127); competitive binding panel, measured: CDC2L1; baseline: vehicle — remaining binding: 100%.
ANKK1 (Homo sapiens, UniProt Q8NFD2); competitive binding panel; baseline: vehicle — remaining binding: 100%.
For PIK3CB (Homo sapiens, UniProt P42338); competitive binding panel; baseline: vehicle: remaining binding read 100%.
The remaining binding was 97% (CAMK1D (Homo sapiens, UniProt Q8IU85); competitive binding panel; baseline: vehicle).
For MAP4K3 (Homo sapiens, UniProt Q8IVH8); competitive binding panel; baseline: vehicle: remaining binding read 91%.
EPHB2 (Homo sapiens, UniProt P29323); competitive binding panel; baseline: vehicle — remaining binding: 97%.
For RPS6KB1 (Homo sapiens, UniProt P23443); competitive binding; S6K1: remaining binding read 100%.
